Results pooled from the literature.
Parts stem from different laboratories: compare values within a part only. Positions count from the first letter of the parent shown.

Set 1
Target: Fragile X messenger ribonucleoprotein 1, C-terminal low-complexity region (Fmr1, Mus musculus, UniProt P35922)
Technique: RNA Bind-n-Seq
Molecule type: RNA
Medium: in vitro
Concentration: 200 nM
Notes: whole 134-nt RNA, ends assumed
Together with: 150 mM KCl
Baseline: input library
Reading: higher = stronger binding
All sequences stand within: GGGAGUUCUACAGUCCGACGAUC … UGGAAUUCUCGGGUGUCAAGG
Oligonucleotide	log2 enrichment
CUCAAGUCCUGUGCUACACAUCGUAUGUACCGAAUCGGGAAGGAAGGGGAAGGAAAGUAUUAUGUUACGCCGUUCGGAUCUGCACUUCCA	-0.0273
CUGUGCUACACAUCGUAUGUACCGAAUCGGCCCCCCCGGGGCCCCCCCGGCCCCCCCGGGGAAAGUAUUAUGUUACGCCGUUCGGAUCUG	-0.799
CACAGACAACACGAAACCACACAGACACAGAGGGAAGGGGUUGGGAUGGGGACAGGGUGCACAGCAGGGCGGGGUAGGACCCCAGCCCCU	1.35
AAGUCCUGUGCUACACAUCGUAUGUACCGAAUCGGUUUUUUUGGAAAAAGGAAAGGAAAGUAUUAUGUUACGCCGUUCGGAUCUGCACUU	-1.06
UCCUGUGCUACACAUCGUAUGUACCGAAUCGGGGAAAAAAGGGAAAAAAGGAAAAAAGGAAAGUAUUAUGUUACGCCGUUCGGAUCUGCA	-0.245
UGGCCCUGCUGGCAUGCGGGGAGGAAGAGGUGGCCUCAUGGAUCGUGGUGGUCCCGGUGGAAUGUUCAGAGGUGGCCGUGGUGGAGACAG	-0.336
GCAGGACGUAAAAACAAAUGGAAAUGCUUCGGAUAGUGGCAGGGGUGGGGGUUGCUAAGGAAAGGGUGGGAUGGGAGUGGGUAAAGAGUU	0.959
AGUCCUGUGCUACACAUCGUAUGUACCGAAUCAAAUUUUUUUAAAUUUAAAUUUAAAAAAGUAUUAUGUUACGCCGUUCGGAUCUGCACU	-1.42
CAAGUCCUGUGCUACACAUCGUAUGUACCGAAUCGGGUUUGGGUUUGGGUUUGGGAAAGUAUUAUGUUACGCCGUUCGGAUCUGCACUUC	1.2
CAAGUCCUGUGCUACACAUCGUAUGUACCGAAUCGGGAAGGGGAAGGGGAAGGGGAAAGUAUUAUGUUACGCCGUUCGGAUCUGCACUUC	0.713
GUCCUGUGCUACACAUCGUAUGUACCGAAUCGGCCCCCGGGGCCCCCGGGCCCCCGGGGAAAGUAUUAUGUUACGCCGUUCGGAUCUGCA	-0.899
UCAAGUCCUGUGCUACACAUCGUAUGUACCGAAUCGGGUGGGUUUUUGGGUGGGAAAGUAUUAUGUUACGCCGUUCGGAUCUGCACUUCC	0.932
CAAGUCCUGUGCUACACAUCGUAUGUACCGAAUCGGGUGGGAGGGUUUUUUUGGGAAAGUAUUAUGUUACGCCGUUCGGAUCUGCACUUC	0.905
CUCAAGUCCUGUGCUACACAUCGUAUGUACCGAAUCGGAAAGGAGGAAAAAGGAAAGUAUUAUGUUACGCCGUUCGGAUCUGCACUUCCA	-0.151

Set 2
Target: Histone acetyltransferase KAT6A, winged helix 1, GST fusion (KAT6A, Homo sapiens, UniProt Q92794, residues 1-85)
Technique: protein binding microarray
Molecule type: double-stranded DNA, one strand shown
Medium: in vitro
Concentration: not given
Notes: 8-mer, flanks averaged, mean of 2 arrays, mostly near background
Baseline: not given
Reading: higher = stronger binding
Residues (chain): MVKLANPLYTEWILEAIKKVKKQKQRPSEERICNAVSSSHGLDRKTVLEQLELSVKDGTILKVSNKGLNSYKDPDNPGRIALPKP
Oligonucleotide	E-score
GGGCGCTA	0.201
ACTTTGAG	-0.281
ATAGTCAT	-0.175
GACGCGAC	0.297
AGAGTACA	-0.0561
CGTCAGAC	0.0565
ACAGATTA	-0.0939
CAGAACAA	-0.203
ATTAATCG	0.0697
GTACATAC	-0.0643
GCCTAGAA	0.00819
CCCAGTCC	-0.235
AGGTAGCA	-0.277
CTGGGCAC	-0.0294
GTATGACA	-0.0722
ACATACTG	-0.0341
CCGAAACC	-0.0819
CGGACTCA	0.152
CTTGAAGC	0.0263
GAACTGTA	-0.0186
AAGGTCCG	0.207
TAGAGGGA	-0.329
CGCATAAC	0.0345
AACGTAGT	-0.0974
ATTTCCCA	-0.292

Set 3
Target: Interferon regulatory factor 3, full length, phosphomimetic (IRF3, Homo sapiens, UniProt Q14653, residues 1-427, S386D/S396D/S398D/S402D/T404D/S405D)
Technique: protein-binding microarray
Molecule type: double-stranded DNA, one strand shown
Medium: in vitro
Concentration: 2540 nM top
Notes: 60-bp whole probe
Together with: salmon DNA 0.4 mg/ml
Baseline: random background probes
Reading: higher = stronger binding
All sequences stand within: GCCTAGCAC … GTCTTGATTCGCTTGACGCTGCTG
Construct (chain): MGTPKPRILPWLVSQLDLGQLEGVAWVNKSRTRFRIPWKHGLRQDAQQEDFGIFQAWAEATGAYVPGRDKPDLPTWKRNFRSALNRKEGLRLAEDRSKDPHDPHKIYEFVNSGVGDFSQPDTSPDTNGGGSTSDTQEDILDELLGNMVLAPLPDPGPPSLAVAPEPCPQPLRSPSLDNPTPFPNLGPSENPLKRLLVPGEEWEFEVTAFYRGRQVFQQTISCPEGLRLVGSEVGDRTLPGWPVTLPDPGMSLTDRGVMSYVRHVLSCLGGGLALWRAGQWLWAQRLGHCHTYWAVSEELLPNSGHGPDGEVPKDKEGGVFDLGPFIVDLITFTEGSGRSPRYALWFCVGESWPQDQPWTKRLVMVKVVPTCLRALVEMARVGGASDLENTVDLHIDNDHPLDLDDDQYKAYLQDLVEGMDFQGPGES
Oligonucleotide	fitted relative affinity
CTATATTAGGGAAGTGTGTTGTGCTAG	0.427 z-score
TCATCTCTCTATTCAGAACTGTGCTAG	1.46 z-score
TCATGTGTCAGGTTTACTACTGTGCTA	0.826 z-score
TCACATCTCTCTTAAATACTGTGCTAG	1.16 z-score
TAACCTTGAACTTTGGCCTCGTGCTAG	-0.624 z-score
GACGATCTCAGACTGGAAACGTGCTAG	0.369 z-score
TGCTTTCTCTTTCACTACTCGTGCTAG	4.52 z-score
GGAAGTATGACTCTGCCTCTGTGCTAG	-0.656 z-score
TAGTTTTACTTTCTATCTCTGTGCTAG	6.66 z-score
CTAGATTTCAGTATCGATTAGTGCTAG	2.52 z-score
GTCGATTCCAGTTTCGAGACGTGCTAG	3.77 z-score
TAGAACTTCTCCACTGAATGAGTGCTA	-0.289 z-score
GACGGACTGGACTATCGGCACGTGCTA	-0.548 z-score
ATTTTTTTGCATTGCTTCTAGTGCTAG	0.599 z-score
GACGAACTGAGTTTCGAGCCGTGCTAG	0.352 z-score
TTCGGTCTCGGTTTCGGTTAGTGCTAG	5.72 z-score
GACGATCTCAGTATCGAAACGTGCTAG	1.36 z-score
TTGGGACTGGACTTTCGGTTAGTGCTA	0.613 z-score
TTGGGACTGGACACTGGGTTAGTGCTA	-1.2 z-score

Set 4
Target: RNA binding protein fox-1 homolog 2, RRM domain, GST-SBP tag (RBFOX2, Homo sapiens, UniProt O43251-10, residues 100-194)
Technique: RNA Bind-n-Seq
Molecule type: RNA
Medium: in vitro
Concentration: 365 nM
Notes: natural RNA segment, single round, ends assumed
Baseline: no-protein control
Reading: higher = stronger binding
All sequences stand within: GGGAGUUCUACAGUCCGACGAUC … UGGAAUUCUCGGGUGCCAA
Target sequence (chain): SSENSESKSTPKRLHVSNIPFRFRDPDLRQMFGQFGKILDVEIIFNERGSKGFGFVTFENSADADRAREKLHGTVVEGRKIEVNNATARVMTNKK
Oligonucleotide	RBNS enrichment (R)
CUCUAGAUAUUAGUUGAAUGUUGAGGCUUUAACUUUUUCGGUGUCUUUCUACAACUGUGUUCUGUGACUCAAUUGUAUCGUGUUAAUAUCAGUGCAGACUGUCUCCUCUA	0.367
GAUGAGCAAGAUUAUGGUUAGUGGGGGCUCUGUGGAGCAUGCACGUAGUGCCCUUCCUUCAUCAGGCCAAAGCACCAAGUUGCUUCACUGCCUCGGCCUUUUGUCCAGCU	7.97
GAGUAGAAGCUUCCUGUGCCUCCGGUUGCCAGGAGACAGCCUGUGCAGUUAAAUGGACCUAGAUUUUGUUUUGCACUAAAGUUUCUGUGACUUAAUAAAGUUCUGUUAAC	1.83
AGGGCAUUUCAAAGUAAUUUUGCCAAAAUUGUCAUAACUGAAUUUUUGCUGUGUGGACUUUCUGAUUUUUUUUUAAUUAUUUUUUUACCUCUAUCUACCAGCUUUAGUUG	1.65
UGAGAGUUGUCUCUGUUGGUCCACUGUGUUUAGUUGCAAGGAUUUUUCCAUGUGUGGUGGUGUUUUUUGUUACUGUUUUAAAGGGUGCCCAUUUGUGAUCAGCAUUGUGA	5.6
UAUCCAUAUUACGUUGUUUCUUAUAGAUUUUUUAAAAAAAAUGUGAAAUUUUUCCACACUAUGUGUGUUGUUUCCAUAGCUGUUCACUUCCUCCAGAAGCCUCCUUACAU	0.569
UCAUCAUUUUGUAUGGCUGCAUAGUAUUCCAUGGUGUAUAUGUGCCACAUUUUCUUAAUCCAGUCUAUCAUUGUUGGACAUUUGGGUUGGUUCCAAGUCUUUGCUAUUGU	1.11
GUUCUGGAAGAGAUUCAGGUGAAAAGUUGGCGUGGCAUGUUUGAGGACUCUGCGGAUCAGUGCUACAGGAGUACAUCUGCCCUGCCACAUGACUCCAGAAGUCUCUGACC	0.546
UGGAUUGGGGAAGCAGCAUCCAUUUGGGGUUCUCCUGCCCAUCUCCCAAGGGGUGACCCUGCCCCUCAAAUUCAUGGUGUCCCCACCGUCUCAAUGUGAAUAGUCUCAGA	0.362
AUUCACUGAAAUCCACAUGAUUCAGUUCUAGCUCUGGAUUACCUCAGUUGACCUUUGUGGAGGUUUUAUCUAUAGAGUAGUUCUUGCCUUGUCAUAGACCUUAUUAGGGU	1.38
UAAUACACAUCUGCUUCAAAAUGAACAUAUUUCAUAAAAUUGGCAUCAAUUUUAAUGACGCUCCUGGUAUGGAACCUCAGAUAUACCCUAUUGGAGACAAUCCUUUGAUC	0.259
UGGGAAUGUGUGAUGCCUUUUCAGGCAAUAGGAAAGUGCAUGAGGAGAGUUUUGAAUGUGCAUAUGCUGACGCCUGAGAACAGACCCAGGUACCCGUGGCUGAGCUGAGC	16.9

Set 5
Target: CCNA1, cyclin fold, Cln2 fusion (human)
Technique: yeast growth competition, sequencing
Medium: yeast
Notes: weak parent motif
Baseline: not given
Reading: higher = stronger binding
Parent: E2F8 docking peptide (human); FVPQRKLEVSTED; partner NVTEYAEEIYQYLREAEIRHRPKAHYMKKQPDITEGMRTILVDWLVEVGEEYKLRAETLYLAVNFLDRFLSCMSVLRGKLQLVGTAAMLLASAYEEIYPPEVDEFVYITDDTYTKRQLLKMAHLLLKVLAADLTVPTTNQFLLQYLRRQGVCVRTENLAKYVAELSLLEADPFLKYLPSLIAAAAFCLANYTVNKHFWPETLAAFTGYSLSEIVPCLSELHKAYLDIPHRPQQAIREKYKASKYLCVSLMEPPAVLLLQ
Variant	normalised enrichment score
V9L	-0.0206
K6A	0.305
R5A L7A	0.139
V2A	0.43
T11A	0.261
P3A	0.0556
F1A	0.254
R5K V9L	0.201
R5K	0.162
Q4A	0.0706
R5A	0.231

Repeated from above (set 5):
Variant	normalised enrichment score
T11A	0.261
P3A	0.0556
F1A	0.254
R5K V9L	0.201
R5K	0.162
Q4A	0.0706
R5A	0.231
